Published values of several laboratories.
Each numbered part is a random draw from the data of one study; scales do not carry over between parts.
Chain of UniProt P78368 (whole entry, looked up): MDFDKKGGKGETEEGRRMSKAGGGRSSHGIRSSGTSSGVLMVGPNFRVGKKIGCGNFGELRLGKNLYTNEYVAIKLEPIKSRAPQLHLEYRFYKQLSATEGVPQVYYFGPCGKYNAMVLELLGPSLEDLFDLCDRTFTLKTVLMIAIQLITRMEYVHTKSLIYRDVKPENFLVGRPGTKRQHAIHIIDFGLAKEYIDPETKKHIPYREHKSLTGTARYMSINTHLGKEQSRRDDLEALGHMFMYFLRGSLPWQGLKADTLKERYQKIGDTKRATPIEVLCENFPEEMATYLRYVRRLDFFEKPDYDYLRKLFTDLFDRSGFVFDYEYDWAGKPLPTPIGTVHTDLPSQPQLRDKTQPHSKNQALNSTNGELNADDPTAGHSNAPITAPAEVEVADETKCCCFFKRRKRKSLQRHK

Study 1 — medium: 1,9-decadiene/PBS; pH: 7.4
With `CC(C)C[C@@H]1NC(=O)[C@H](CC(C)C)NC(=O)[C@@H](CC(C)C)NC(=O)[C@@H](C(C)C)NC(=O)[C@H](C)NC(=O)[C@H](CC(C)C)NC(=O)[C@@H](CC(C)C)NC1=O` the logD was 1.67.
For `CC(C)C[C@@H]1NC(=O)[C@H](Cc2cscn2)NC(=O)[C@H](Cc2cscn2)NC(=O)[C@H](C)NC(=O)[C@@H](CCC(=O)N2CCCC2)NC(=O)[C@H](CC(C)C)NC(=O)[C@@H](CC(C)C)NC1=O`, the logD was -2.44.
`CC(C)C[C@@H]1NC(=O)[C@H](CCC(=O)N2CCCC2)NC(=O)[C@H](CCC(=O)N2CCCC2)NC(=O)[C@@H](Cc2cscn2)NC(=O)[C@H](CC(C)C)NC(=O)[C@@H](CC(C)C)NC(=O)[C@H](CC(C)C)NC1=O` has a logD of -1.98.
`CC(C)C[C@@H]1NC(=O)[C@H](CC(C)C)NC(=O)[C@H](CC(C)C)NC(=O)[C@H](Cc2cscn2)NC(=O)[C@@H](Cc2cscn2)NC(=O)[C@H](Cc2cscn2)NC(=O)[C@H](CCC(=O)N2CCCC2)NC1=O` has a logD of -2.21.
`CC(C)C[C@@H]1NC(=O)[C@@H](C)NC(=O)[C@H](Cc2cscn2)NC(=O)[C@@H](C(C)C)NC(=O)[C@H](C(C)C)NC(=O)[C@H](CC(C)C)NC(=O)[C@@H](CC(C)C)NC1=O` has a logD of -1.08.
The logD of `CC(C)C[C@@H]1NC(=O)[C@H](CC(C)C)NC(=O)[C@@H](CC(C)C)NC(=O)[C@H](C(C)C)NC(=O)[C@@H](Cc2cscn2)NC(=O)[C@H](Cc2cscn2)NC(=O)[C@H](CCC(=O)N2CCCC2)NC1=O` is reported as -1.56.
For `CC(C)C[C@@H]1NC(=O)[C@H](C)NC(=O)[C@H](CCC(=O)N2CCCC2)NC(=O)[C@H](CC(C)C)NC(=O)[C@@H](Cc2cscn2)NC(=O)[C@H](CC(C)C)NC(=O)[C@@H](CC(C)C)NC1=O`, the logD was -2.04.
With `CC(C)C[C@@H]1NC(=O)[C@@H](C)NC(=O)[C@@H](CC(C)C)NC(=O)[C@H](C)NC(=O)[C@H](C)NC(=O)[C@H](CC(C)C)NC(=O)[C@@H](CC(C)C)NC1=O` the logD was -2.1.

Study 2 — organism: Sarcocystis neurona; observed: parasite growth; concentration: 10 µM; time: 96 h; setting: secondary screen
`CC(Oc1c(Cl)cccc1Cl)C1=NCCN1` (stereo not drawn) has an inhibition of -6.7%.
The inhibition of `Nc1nc(=O)c2nc(CNc3ccc(C(=O)N[C@@H](CCC(=O)O)C(=O)O)cc3)cnc2[nH]1` is reported as -7.2%.
The inhibition of `[H]/N=C(/NC)NCCC[C@H](N)C(=O)O` is reported as -26.6%.
For `Cn1c(=O)c2[nH]cnc2n(C)c1=O`, the inhibition was -9.7%.
`CCC(=O)NS(=O)(=O)c1ccc(-c2c(-c3ccccc3)noc2C)cc1` gave an inhibition of -13.1%.
For `Oc1ccc(/C=C/c2cc(O)cc(O)c2)cc1`, the inhibition was -15.1%.
`CC(=O)CC(c1ccccc1)c1c(O)c2ccccc2oc1=O` (stereo not drawn) gave an inhibition of -23.4%.
With `C[C@H](CS)C(=O)N1CCC[C@H]1C(=O)O` the inhibition was -14.7%.

Single results of other studies
`COc1ccc2c(c[n+](C)c3c4cc5c(cc4ccc23)OCO5)c1OC` gave a remaining activity of 96.8% (Casein kinase I isoform gamma-2 (CSNK1G2, Homo sapiens, UniProt P78368); enzyme activity, inhibitor; 0.5 µM; baseline: control).
`CC(C)n1cnc(-c2ccc(F)cc2)c1-c1ncc(C(=O)Nc2ccc(N3CCN(C)CC3)cc2)[nH]1`: “abdominal distension incidence” 0% (IPF patients; 60 mg once daily, adverse event).

Repeated from above (study 2):
The inhibition of `[H]/N=C(/NC)NCCC[C@H](N)C(=O)O` is reported as -26.6%.
`CC(=O)CC(c1ccccc1)c1c(O)c2ccccc2oc1=O` (stereo not drawn) gave an inhibition of -23.4%.
For `Cn1c(=O)c2[nH]cnc2n(C)c1=O`, the inhibition was -9.7%.
